Published values gathered from unrelated publications.
Compare with care: the assays were run in different laboratories. Several values in a cell are separate wells, animals, samples, runs or records. ± marks the error that the study gave.

Structure (SMILES)	tested on	assay	system	setting	how to read	measurement	result
COc1cc2c(NC3CCN(C(C)C)CC3)cc(N3CCOCC3)nc2cc1OCCCN1CCCC1	–	TMT quantitative proteomics, refers to: ENO1	5xFAD mice, hippocampus	dose not given	–	normalised protein abundance	0.0634 and -0.00519 and 0.0726 and 0.0551 and 0.0423 and 0.0674 and 0.0199
COC1OC(C)C(OC2OC(C)C(OS(=O)(=O)O)C(OC3OC(C)C(OC4OC(C)C(OS(=O)(=O)O)C(OC5OC(C)C(OC6OC(C)C(OS(=O)(=O)O)C(OC7OC(C)C(OC8OC(C)C(OS(=O)(=O)O)C(OC9OC(C)C(OC%10OC(C)C(OS(=O)(=O)O)C(OC%11OC(C)C(OC%12OC(C)C(OS(=O)(=O)O)C(OS(=O)(=O)O)C%12O)C(OS(=O)(=O)O)C%11O)C%10O)C(OS(=O)(=O)O)C9O)C8O)C(OS(=O)(=O)O)C7O)C6O)C(OS(=O)(=O)O)C5O)C4O)C(OS(=O)(=O)O)C3O)C2O)C(OS(=O)(=O)O)C1O (stereo not shown)	–	–	human plasma	128 µg/mL	–	thrombin time	10.4 ± 0.4 s
O=C(N[C@@H](Cc1ccc(OCCCCC2CCNCC2)cc1)C(=O)O)c1nc2ccccc2o1.O=C(O)C(F)(F)F	–	platelet aggregation, inhibitor, impedance aggregometry	human, whole blood, 1:1 saline	25 nM, 6 min, 37 °C, added: ADP 20 µM	higher = more aggregation	aggregation impedance AUC	35.3 a.u. and 42.2 a.u. and 46.5 a.u. and 31.8 a.u. and 37.3 a.u.
CC(C)C[C@H](NC(=O)CNC(=O)[C@H](CCC(N)=O)NC(=O)[C@H](CC(C)C)NC(=O)[C@H](CC(C)C)NC(=O)[C@H](CCCNC(=N)N)NC(=O)[C@H](CCC(N)=O)NC(=O)[C@H](CC(C)C)NC(=O)[C@H](CCCNC(=N)N)NC(=O)[C@H](C)NC(=O)CNC(=O)[C@H](CCC(=O)O)NC(=O)[C@H](CCCNC(=N)N)NC(=O)[C@H](CC(C)C)NC(=O)[C@H](CCCNC(=N)N)NC(=O)[C@H](CO)NC(=O)[C@H](CC(C)C)NC(=O)[C@H](CCC(=O)O)NC(=O)[C@H](CO)NC(=O)[C@@H](NC(=O)[C@H](Cc1ccccc1)NC(=O)[C@@H](NC(=O)CNC(=O)[C@H](CC(=O)O)NC(=O)C(C)(C)NC(=O)[C@@H](N)Cc1c[nH]cn1)[C@@H](C)O)[C@@H](C)O)C(=O)N[C@@H](CC(C)C)C(=O)N[C@@H](CCC(N)=O)C(=O)NCC(=O)N[C@@H](CC(C)C)C(=O)N[C@H](C(=O)NCC(=O)N[C@@H](CCCCNC(=O)COCCOCCNC(=O)COCCOCCNC(=O)CC[C@H](NC(=O)CCCCCCCCCCCCCCCCC(=O)O)C(=O)O)C(N)=O)C(C)C	–	–	DIO C57BL/6J mice	sc, 300 nmol/kg twice daily, 8 days	–	dark-phase energy expenditure	increased
COc1ccc(C(=O)CCc2cc(C(CCc3ccc(O)cc3OC)c3ccc(O)cc3)c(O)cc2OC)cc1 (racemic)	–	–	human blood	10 µM, added: A23187	–	PGE2 level	44 ± 14 pg/mL
CN1CCC[C@]1(C)/C=C/S(=O)(=O)NC(=O)Nc1c2c(cc3c1CCC3)CCC2	–	–	human, whole blood ex vivo	100 mg twice daily, day 14, 12 h, multiple ascending dose, added: LPS and ATP	–	IL-18 inhibition	100%
COC1OC(C)C(OS(=O)(=O)O)C(OC2OC(C)C(OS(=O)(=O)O)C(OC3OC(C)C(OS(=O)(=O)O)C(OC4OC(C)C(OS(=O)(=O)O)C(OS(=O)(=O)O)C4OS(=O)(=O)O)C3OS(=O)(=O)O)C2OS(=O)(=O)O)C1OS(=O)(=O)O (stereo not shown)	–	–	human plasma	128 µg/mL	–	thrombin time	9.2 s
O=C(N[C@@H](Cc1coc2ccccc12)B(O)O)[C@@H]1C[C@H]2CC[C@@H]1O2	–	tumour growth	MM1.S, mouse, MM1.S multiple myeloma xenograft	oral, 10 mg/kg daily	–	T/C	-82%
C=Cc1c(C)c2cc3nc(c(CC(=O)[O-])c4[n-]c(cc5nc(cc1[n-]2)C(C)=C5CC)c(C)c4C(=O)[O-])C(CCC(=O)[O-])C3C.[Cu+2].[Na+].[Na+].[Na+] (stereo not shown)	–	–	C57BL/6 mouse, female, cyclophosphamide-induced cystitis	dose not given	relative to: cyclophosphamide alone	IL-22 level	increased
CCCCCc1ccc(S(=O)(=O)N2CC2C(=O)OC)cc1 (stereo not shown)	–	–	mouse, Lewis lung carcinoma	intraperitoneal, 15 mg/kg, 16 doses, day 9	–	tumour volume	135 mm3
COC1OC(C)C(O)C(OC2OC(C)C(O)C(OC3OC(C)C(O)C(OC4OC(C)C(O)C(OC5OC(C)C(O)C(OC6OC(C)C(O)C(OC7OC(C)C(O)C(OC8OC(C)C(O)C(OC9OC(C)C(O)C(OS(=O)(=O)O)C9OS(=O)(=O)O)C8OS(=O)(=O)O)C7OS(=O)(=O)O)C6OS(=O)(=O)O)C5OS(=O)(=O)O)C4OS(=O)(=O)O)C3OS(=O)(=O)O)C2OS(=O)(=O)O)C1OS(=O)(=O)O (stereo not shown)	–	–	human plasma	128 µg/mL	–	thrombin time	9.6 ± 0.4 s
Cc1ncsc1-c1ccc(C(C)NC(=O)C2CC(O)CN2C(=O)C(NC(=O)CCCCCCCCCCN2CCCC(Nc3ncc(Cl)c(Nc4ccccc4S(=O)(=O)C(C)C)n3)C2)C(C)(C)C)cc1 (stereo not shown)	22Rv1	RNA-seq, refers to: ZNF839 mRNA	–	concentration not given	relative to: DMSO	log2 fold change	-1.87
COC1OC(C)C(O)C(OC2OC(C)C(O)C(OC3OC(C)C(O)C(OC4OC(C)C(O)C(OC5OC(C)C(O)C(OC6OC(C)C(O)C(OS(=O)(=O)O)C6OS(=O)(=O)O)C5OS(=O)(=O)O)C4OS(=O)(=O)O)C3OS(=O)(=O)O)C2OS(=O)(=O)O)C1OS(=O)(=O)O (stereo not shown)	–	–	human plasma	128 µg/mL	relative to: control	thrombin time prolongation	1 fold
Cc1ccc(N(O)/N=N/c2ccc(S(=O)(=O)Nc3nccs3)cc2)cc1	–	DPPH scavenging, absorbance	–	120 µg/mL	–	inhibition	30.2%
COC1OC(C)C(OS(=O)(=O)O)C(OC2OC(C)C(OS(=O)(=O)O)C(OS(=O)(=O)O)C2OS(=O)(=O)O)C1OS(=O)(=O)O (stereo not shown)	–	–	human plasma	128 µg/mL	–	thrombin time	10.1 ± 0.5 s
COc1cc(O)ccc1CCC(c1ccc(O)cc1)c1cc2c(c(C)c1O)OC(c1ccc(O)cc1)CC2 (mixture of isomers)	–	refers to: 4-HDHA	human whole blood	3 µM, added: Escherichia coli	–	amount	79 ± 32 pg/mL blood
COC1CN([C@H]2CC[C@H]([C@@]3(C)Oc4c(Cl)cc(C(=O)NCc5c(SC)cc(C)[nH]c5=O)c(C)c4O3)CC2)C1	–	RNA-seq, refers to: TRPV4 mouse homolog	mouse, HT-1376 xenograft, whole blood	dose not given	relative to: vehicle	log2 fold change	1.23
COC1OC(C)C(OC2OC(C)C(OS(=O)(=O)O)C(OC3OC(C)C(OC4OC(C)C(OS(=O)(=O)O)C(OS(=O)(=O)O)C4O)C(OS(=O)(=O)O)C3O)C2O)C(OS(=O)(=O)O)C1O (stereo not shown)	–	–	human plasma	128 µg/mL	–	thrombin time	9.6 ± 0.3 s
CCC(=O)N[C@@H](C)C(=O)OCC(=O)N[C@@H](C)C(=O)O	–	–	water	pH 8, 65 °C	–	chain scission rate constant	0.792 h⁻¹
COC1OC(C)C(OC2OC(C)C(O)C(OS(=O)(=O)O)C2OS(=O)(=O)O)C(OS(=O)(=O)O)C1OS(=O)(=O)O (stereo not shown)	–	–	human plasma	128 µg/mL	–	thrombin time	9.3 ± 0.1 s
NC[C@@H](C(=O)Nc1ccc(-c2cn[nH]c2)cc1)c1ccccc1	–	tonometry	NZW rabbit, magnetic bead-induced ocular hypertension	ocular, 0.1%, 24 h	–	IOP	36.9 mmHg
COc1ccccc1-c1ccncc1C(=O)Nc1nnc(OCc2ccc(Cl)cc2)s1	–	–	Brca1 Δ11/Δ11 Polq-/- MEFs, Mus musculus	10 µM, average of runs	relative to: 0 µM	colony survival	72.7%
